Measured values of several laboratories.
Each line is one published result; not all experiments were run side by side. Several values in a cell are separate wells, animals, samples, runs or records. Numbers after ± are the reported error.
WDR55: WD repeat-containing protein 55 (WDR55, Homo sapiens, UniProt Q9H6Y2)
HTR7: 5-hydroxytryptamine receptor 7 (HTR7, Homo sapiens, UniProt P34969)
ESR2: Estrogen receptor beta (ESR2, Homo sapiens, UniProt Q92731)
SLC6A6 Y138A: Sodium- and chloride-dependent taurine transporter (SLC6A6, Homo sapiens, UniProt P31641, Y138A)

SMILES | target or system | assay | system | conditions | scale | measurement | value
Nc1ncnc2c1ncn2[C@@H]1O[C@H](COP(=O)(O)CP(=O)(O)OP(=O)(O)O)[C@@H](O)[C@H]1O | P2X purinoceptor 1 (P2RX1, Homo sapiens, UniProt P51575, E282A) | calcium influx | – | 10 nM | reference: ionomycin response | calcium influx | 0% and 8.62%
CC(=O)CC(c1ccccc1)c1c(O)c2ccccc2oc1=O (centres unmarked) | Nedd8-cullin1 interaction | neddylation, AlphaScreen | – | 100 µM | – | inhibition | 47.2%
Nc1ncnc2c1ncn2[C@@H]1O[C@H](CO[P@](=O)(O)O[P@](=O)(O)O[P@@](=O)(O)S)[C@@H](O)[C@H]1O | GUK1 (Homo sapiens, UniProt Q16774) | ITC | – | molar ratio 2.388 | – | ΔH | -0.364 kcal/mol
CCC1(O)CCCN(C(=O)c2ccc(-c3ccc(F)c(NC(=O)CCl)c3)cc2)C1 (centres unmarked) | DNA dC->dU-editing enzyme APOBEC-3B, C-terminal domain (Homo sapiens, UniProt Q9UH17) | covalent modifier, intact protein mass spectrometry | – | 500 µM, 3 h, 20-fold molar excess | – | unmodified protein | 0%
Nc1ccc(C(=O)O)cc1 | BEST1, with wild-type BEST1 (Homo sapiens, UniProt O76090, L234P) | ion current, whole-cell patch clamp | HEK293 co-expressing mutant and wild-type | concentration not given, voltage -60 mV | – | current density | -12.6 pA/pF and -15.7 pA/pF and -4.93 pA/pF and -9.08 pA/pF and -8.47 pA/pF and -31.9 pA/pF
N[C@@H](CCC(=O)O)C(=O)O | uncharacterized protein (Ixodes scapularis, UniProt A0A0N9E2I2) | ion current, agonist | Xenopus oocytes | no modulator present | reference: 1 mM compound response | Emax | 140 ± 7%
N#Cc1ccc2c(-c3ccncc3)c(-c3ccc(F)cc3)nn2c1 | Protein kinase C-like 1 (Candida albicans, UniProt P43057) | kinase binding, competitor, MIB/MS competition, item: PKC1 | Candida albicans cell lysate | 100 nM | reference: DMSO | log2 fold change | -0.196
Nc1nc2c(ncn2[C@@H]2O[C@H](COP(=O)(O)O)[C@@H](O)[C@H]2O)c(=O)[nH]1 | GUK1 (Homo sapiens, UniProt Q16774, D103A) | enzyme activity, NADH-coupled | – | 15.62 µM | – | reaction rate | 1.97 s⁻¹ and 1.94 s⁻¹ and 3.34 s⁻¹
C=C(CC(=O)O)C(=O)O | Uncharacterized protein (Pelagibacter ubique, UniProt Q4FKX4) | differential scanning fluorimetry | Candidatus Pelagibacter ubique | in-house screen | – | thermal shift | 9.04 °C
CC1(C)CC2(C)OC(=O)NC2(C)c2ccccc21 (centres unmarked) | WDR55 | binding, affinity selection mass spectrometry | – | – | reference: other proteins in batch | log fold enrichment | -0.0686
O=C(O)C(=O)Cc1ccccc1 | Nostoc punctiforme | substrate, Ellman CoA release | – | added: acetyl-CoA | – | Km | 60 ± 3.4 µM
O=C(C[C@@H](C(F)F)n1ccc(F)n1)N1CCC(O)(Cn2cnc3c(cnn3-c3ccc(F)cc3)c2=O)CC1 | Ubiquitin carboxyl-terminal hydrolase 7 (USP7, Homo sapiens, UniProt Q93009) | ITC | – | concentration not given, wild-type enzyme | – | binding enthalpy | -20.7 ± 0.127 kcal/mol
O=C(O)C(=O)Cc1cccc(O)c1 | Nostoc punctiforme | substrate, Ellman CoA release | – | added: acetyl-CoA | – | Km | 85 ± 6.2 µM
COc1cc(-c2nc(NC(=O)c3cc4cc(C)cc(C)c4n3CC(=O)O)sc2CCC2CCCCC2)c(OC)cc1Cl | Cholecystokinin receptor type A (CCKAR, Homo sapiens, UniProt P32238) | antagonist, calcium flux | – | – | – | IC50 | 0.07 µM
C[C@]12CC[C@@H]3c4ccc(O)cc4CC[C@H]3[C@@H]1CC[C@@H]2O | 17-beta-hydroxysteroid dehydrogenase 13 (Homo sapiens, UniProt Q7Z5P4) | substrate, NADH fluorescence | – | – | – | Vmax | 0.04 nM NADH/s/nM enzyme
CCCCC[S+]([O-])c1n[nH]c(N)n1 (centres unmarked) | Baculoviral IAP repeat-containing protein 3, BIR1 domain (BIRC3, Homo sapiens, UniProt Q13489) | binding, affinity selection mass spectrometry | – | – | reference: other proteins in batch | log fold enrichment | 0.165
CCCCCC(O)C(CC=O)SC[C@H](NC(C)=O)C(=O)O (some centres unmarked) | N-acyl-aromatic-L-amino acid amidohydrolase (carboxylate-forming) (Acy3, Mus musculus, UniProt Q91XE4) | substrate, fluorescamine | – | added: Co2+ 0.1 mM | – | Km | 530 µM
O=C1c2ccccc2CCN1CCCCN1CCN(c2cccc(Cl)c2Cl)CC1 | HTR7 | radioligand binding | – | concentration not given, added: [3H]LSD | – | inhibition | 100%
CCN(CCO)CCCC(C)Nc1ccnc2cc(Cl)ccc12 (centres unmarked) | Sodium channel protein type 5 subunit alpha (SCN5A, Homo sapiens, UniProt Q14524) | sodium current | – | 300 µM | – | inactivation V1/2 | -90.5 ± 4.4 mV
COc1cc(/C=N/NC(=O)c2cc3c(ccc4ccccc43)o2)cc(OC)c1O | ESR2 | PGC-1α coactivator displacement, inhibitor, TR-FRET | – | up to 100 µM, added: estradiol | – | activity | inactive
O=C(O)CCn1cccn1 | BRCA1-associated protein, ZnF-UBD domain (BRAP, Homo sapiens, UniProt Q7Z569) | – | – | – | – | Kd | 74.4 µM

SMILES | target or system | assay | system | conditions | scale | measurement | value
NC/C(=C\F)COc1cccc(Cn2c(=S)[nH]c(=O)c3[nH]cnc32)c1 | Myeloperoxidase (MPO, Homo sapiens, UniProt P05164) | inhibitor, cholesteryl ester hydroperoxide | – | 0.0021 µM | reference: control | LDL lipid peroxidation | 93.8% and 106% and 84.5% and 79.2%
CN(C)C(=O)CCSC(SCCC(=O)O)c1cccc(/C=C/c2ccc3ccc(Cl)cc3n2)c1 (centres unmarked) | UDP-glucuronosyltransferase 1A1 (UGT1A1, Homo sapiens, UniProt P22309) | glucuronidation, inhibitor | cell lysate | 2.5 µM, added: genistein | – | genistein glucuronide formation | decreased
NCCS(=O)(=O)O | SLC6A6 Y138A | binding, microscale thermophoresis | – | 62.5 µM, room temperature, added: 50 nM labelled protein | higher = more binding | normalised MST signal | 0.0115
Cc1ccnc(C)c1OC[C@H]1CN(CCN2CCc3ccccc32)CCO1 | 5-hydroxytryptamine receptor 2C (HTR2C, Homo sapiens, UniProt P28335) | radioligand binding | – | concentration not given, added: [3H]mesulergine | – | inhibition | 1.5%
Nc1ncnc2c1ncn2[C@@H]1O[C@H](COP(=O)(O)OP(=O)(O)OP(=O)(O)O)[C@@H](O)[C@H]1O | P2X purinoceptor 7 (P2rx7, Rattus norvegicus, UniProt Q64663, I214G) | ion current, agonist, two-electrode voltage clamp | Xenopus laevis oocytes | 300 µM | reference: highest concentration response | normalized current | 0.747 and 0.677 and 0.711
Nc1ccn([C@H]2C[C@H](O)[C@@H](COP(=O)(O)OP(=O)(O)OP(=O)(O)O)O2)c(=O)n1 | Gag-Pol polyprotein, reverse transcriptase (gag-pol, Human immunodeficiency virus type 1 group M subtype B, UniProt P04585) | nucleotide incorporation, substrate | HIV-1 | added: DNA template | – | Km | 0.025 µM
NCCCCC(=O)O | SLC6A6 Y138A | binding, microscale thermophoresis | – | 3.91 µM, room temperature, added: 50 nM labelled protein | higher = more binding | normalised MST signal | -0.0387
Cc1cccc(N2CC(C(=O)O)CC2=O)c1 (centres unmarked) | WDR55 | binding, affinity selection mass spectrometry | – | – | reference: other proteins in batch | log fold enrichment | -0.000956
CN1CCN(c2cc(-c3ccncc3)c(-c3ccc4ccccc4c3)nn2)CC1 | Pituitary adenylate cyclase-activating polypeptide type I receptor (ADCYAP1R1, Homo sapiens, UniProt P41586) | agonist, FLIPR | – | 12.5 µM | – | activation | -1.5%
O=c1nc(SCc2cc(F)cc(C(F)(F)F)c2)nc(SCc2csc3ccc(Cl)cc23)[nH]1 | DNA topoisomerase 2-alpha (TOP2A, Homo sapiens, UniProt P11388) | DNA cleavage | – | 1.95 µM, replicate 1 | – | linear DNA | 0%
COc1ccccc1N1CCN(CCCCN2CCc3ccccc3C2=O)CC1 | 5-hydroxytryptamine receptor 2A (HTR2A, Homo sapiens, UniProt P28223) | radioligand binding | – | concentration not given, added: [3H]ketanserin | – | inhibition | 91.5%
O=C1Nc2c(ccc(Cl)c2Cl)C1=NO | KCNN4/CALM1 (Homo sapiens, UniProt O15554+P0DP23, A279G) | whole-cell patch clamp | A279G mutant | 10 µM, added: calcium 250 nM | – | current | no effect
NC(=O)C1=CN([C@@H]2O[C@H](COP(=O)(O)OP(=O)(O)OC[C@H]3O[C@@H](n4cnc5c(N)ncnc54)[C@H](O)[C@@H]3O)[C@@H](O)[C@H]2O)C=CC1 | FSP1 | oxidase activity, substrate, substrate consumption | – | added: atmospheric O2 | – | Km | 34 ± 9.53 µM
Clc1cccc(OC[C@H]2CN(CCN3CCc4ccccc43)CCO2)c1 | HTR7 | radioligand binding | – | concentration not given, added: [3H]LSD | – | inhibition | 43.8%
CC[C@@H]1[C@H](F)C(=O)N[C@@H]1COc1nccc2cc(C(N)=O)c(OC)cc12 | Beta-adrenergic receptor kinase 1 (GRK2, Homo sapiens, UniProt P25098) | ATP-site probe binding, ActivX profiling, item: BARK1 | THP-1 cell lysate | 0.04 mM, Lys2 site | – | inhibition | 8%
CC(C)C(=O)Nc1n[nH]c2cc(-c3cccc(NS(=O)(=O)C4CC4)c3)ccc12 | Phosphatidylinositol 4-phosphate 5-kinase type-1 gamma (PIP5K1C, Homo sapiens, UniProt O60331) | ADP-Glo | – | 370 nM, added: 10 µM ATP | – | ADP produced | 2.6 µM
Cc1ccc(C)c(OCCCC(C)(C)C(=O)O)c1 | Nedd8-cullin1 interaction | neddylation, AlphaScreen | – | 100 µM | – | inhibition | 18.6%
O=c1cc(-c2ccc(O)c(-c3c(O)cc(O)c4c(=O)cc(-c5ccc(O)cc5)oc34)c2)oc2cc(O)cc(O)c12 | ESR2 | array formation, agonist | GFP-ERβ PRL-HeLa | 1 h | – | EC50 | 3.51 µM
O=C(COP(=O)(O)O)[C@@H](O)[C@H](O)[C@H](O)COP(=O)(O)O | Phosphoglycerate mutase 1 (Homo sapiens, UniProt P18669) | activator | – | 0.1562 mM, wild-type enzyme, unit not given | relative to no compound | enzyme activity | 1.91 and 1.71 and 1.67
O=C(O)CC[C@H](NC(=O)N[C@@H](CCCCNC(=O)[C@H](Cc1ccc2ccccc2c1)NC(=O)CCCCCNC(=O)CN1CCN(CC(=O)O)CCN(CC(=O)O)CCN(CC(=O)O)CC1)C(=O)O)C(=O)O [gallium-68 labelled] | – | PET/CT | mouse, 22Rv1 xenograft, muscle | intravenous, 3.7 MBq, 1 h | – | SUVmean | 0.25 ± 0.005 SUV

A few entries again:
SMILES | target or system | assay | system | conditions | scale | measurement | value
COc1cc(-c2nc(NC(=O)c3cc4cc(C)cc(C)c4n3CC(=O)O)sc2CCC2CCCCC2)c(OC)cc1Cl | Cholecystokinin receptor type A (CCKAR, Homo sapiens, UniProt P32238) | antagonist, calcium flux | – | – | – | IC50 | 0.07 µM
C[C@]12CC[C@@H]3c4ccc(O)cc4CC[C@H]3[C@@H]1CC[C@@H]2O | 17-beta-hydroxysteroid dehydrogenase 13 (Homo sapiens, UniProt Q7Z5P4) | substrate, NADH fluorescence | – | – | – | Vmax | 0.04 nM NADH/s/nM enzyme
CCCCC[S+]([O-])c1n[nH]c(N)n1 (centres unmarked) | Baculoviral IAP repeat-containing protein 3, BIR1 domain (BIRC3, Homo sapiens, UniProt Q13489) | binding, affinity selection mass spectrometry | – | – | reference: other proteins in batch | log fold enrichment | 0.165
CCCCCC(O)C(CC=O)SC[C@H](NC(C)=O)C(=O)O (some centres unmarked) | N-acyl-aromatic-L-amino acid amidohydrolase (carboxylate-forming) (Acy3, Mus musculus, UniProt Q91XE4) | substrate, fluorescamine | – | added: Co2+ 0.1 mM | – | Km | 530 µM
O=C1c2ccccc2CCN1CCCCN1CCN(c2cccc(Cl)c2Cl)CC1 | HTR7 | radioligand binding | – | concentration not given, added: [3H]LSD | – | inhibition | 100%
CCN(CCO)CCCC(C)Nc1ccnc2cc(Cl)ccc12 (centres unmarked) | Sodium channel protein type 5 subunit alpha (SCN5A, Homo sapiens, UniProt Q14524) | sodium current | – | 300 µM | – | inactivation V1/2 | -90.5 ± 4.4 mV
